Published values gathered from unrelated publications.
Compare with care: the assays were run in different laboratories. Values joined by “and” are separate records of one study, mostly repeats; a detail may differ. ± gives the spread as reported.
CASP1: Caspase-1 (CASP1, Homo sapiens, UniProt P29466)
Rhomboid protease AarA: Rhomboid protease AarA (Providencia stuartii, UniProt P46116)
T1: ssRNA, hairpin with 1x1 G/G internal loops (Homo sapiens); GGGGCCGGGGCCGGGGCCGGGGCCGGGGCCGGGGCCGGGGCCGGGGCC

Nc1ccn([C@@H]2O[C@H](COP(=O)(O)OP(=O)(O)OP(=O)(O)O)[C@@H](O)[C@H]2O)c(=O)n1 has a Vmax of 0.79 fraction per time (RNA-directed RNA polymerase L (Human respiratory syncytial virus A, UniProt P28887); nucleotide incorporation, substrate).
The kinact/KI of CC(=O)N[C@@H](CC(=O)O)C(=O)N[C@@H](CCC(=O)O)C(=O)N[C@H](C(=O)N[C@@H](CC(=O)O)C(=O)COC(=O)c1c(C)cccc1C)[C@@H](C)OCc1ccccc1 is reported as 23800 M⁻¹ s⁻¹ (CASP1; enzyme activity, inhibitor).
CN(Cc1cc(C2CC2)on1)C(=O)c1cccc(-c2ccc3c(c2)CCO3)c1 gave a reaction rate of 0.00128 a.u. (Acetyl-CoA synthetase (Cryptococcus neoformans, UniProt J9VFT1); enzyme activity, inhibitor, coupled pyrophosphate; 1.95 µM; higher is more activity).
For CC(C(=O)Nc1ccccc1OCC1CC1)C(F)(F)F (stereo not drawn), IC50 read “inactive” (Rhomboid protease AarA; enzyme activity, inhibitor, fluorogenic peptide substrate).
Under “plasma membrane localization”, CC(C=CC=C(C)C=CC1=C(C)CCCC1(C)C)=CC=O is recorded as 0 (Rhodopsin (RHO, Homo sapiens, UniProt P08100, E181K); immunostaining, refers to: opsin; COS-7 transfected; 0.05 µM, unit not given; reference: surface over total stained cells).
The inhibition of C[Si](C)(C)C[C@@H](CN)CC(=O)O is reported as -26% (HTR2C (Homo sapiens, UniProt P28335); ligand displacement, radioligand; 75 µM).
The selectivity ratio of Cc1ccc(C2CCN(C3CCCCC3O)CC2)cc1 (racemic) is reported as 0.027 (Vesicular acetylcholine transporter (Rattus norvegicus, UniProt Q62666); reference: Ki sigma1 over Ki VAChT).
CC(=O)N[C@H](C(=O)N[C@@H](CCC(N)=O)C(=O)N[C@@H](CO)C(=O)N[C@@H](CC(=O)O)C(=O)COC(=O)c1c(C)cccc1C)C(C)(C)C gave a kinact/KI of 16000 M⁻¹ s⁻¹ (CASP1; enzyme activity, inhibitor).
O=C(O)C1OC(Oc2cccc(-c3oc4ccccc4c(=O)c3O)c2)C(O)C(O)C1O (stereo not drawn) gave a Vmax of 7.43 ± 7.8 nmol/mg/min (UGT1A1 (Homo sapiens, UniProt P22309); glucuronidation, substrate; Supersomes).
N#CN1CC[C@H](C(=O)Nc2nc3c(s2)CN(C(=O)Cn2cc(COCCOCCOCCOCCNC(=O)CCCC[C@@H]4SC[C@@H]5NC(=O)N[C@@H]54)nn2)CC3)C1 has an iBAQ abundance of 778000 (OTUB1 (Homo sapiens, UniProt Q96FW1); probe binding, affinity probe, neutravidin pull-down LC-MS/MS; HEK293T, cell lysate; 5 µM, 1 h, mean of three replicates, unit not given; higher = more pulled down).
The kobs/[I] of CC(=O)N[C@@H](CC(=O)O)C(=O)N[C@@H](CCCC(=O)O)C(=O)N[C@@H](CC(C)C)C(=O)N[C@@H](CC(=O)O)C(=O)COC(=O)c1c(C)cccc1C is reported as 45000 M⁻¹ s⁻¹ (CASP1; inhibitor; recombinant enzyme).
O=C(NC[C@@H](Cc1ccc(F)cc1)N1CCC(O)(C(F)(F)F)CC1)C1(c2ccc(Cl)cc2)CCCC1: “EC50 fold change” 6.4 (TRPA1 (Homo sapiens, UniProt O75762, L881M); calcium influx, agonist; reference: L881M mutant over wild type).
Cn1cc(-c2cc(N3CCCCS3(=O)=O)ccc2N[C@H]2CC[C@H](C)CC2)c2cc[nH]c2c1=O (stereo in doubt) has a remaining binding of 17% (CREBBP (Homo sapiens, UniProt Q92793); binding, competition with immobilised ligand; 1 µM).
COC1CN([C@H]2CC[C@H]([C@@]3(C)Oc4c(Cl)cc(C(=O)NCc5c(SC)cc(C)[nH]c5=O)c(C)c4O3)CC2)C1 — result for “log2 fold change”: 1.04 (RNA-seq, refers to: POLN; human, whole blood; dose not given, 24 h; reference: pretreatment baseline).
O=C1c2sc(-c3ccc(N4CCC(F)C4)nc3F)nc2CCN1c1cccnc1 (stereo not drawn) gave a specific binding of 0.765 nM and 1.02 nM (TAR DNA-binding protein 43, aggregated (TARDBP, Homo sapiens, UniProt Q13148); radioligand binding; human, FTLD-TDP type B extract; with: radioligand 3.53 nM).
For O=C(CN1CCCN(Cc2cccc3cnccc23)CC1)N1CCCN(CC(=O)N2CCc3c(ncn3-c3ccccc3)C2)CC1, the Kd was > 40 µM (T1, ssRNA, hairpin with 1x1 G/G internal loops (Homo sapiens); BLI; read off a plot).
N=C(N)NCCC[C@H](NC(=O)[C@H](Cc1ccc(O)cc1)NC(=O)CNC(=O)[C@H](Cc1c[nH]cn1)NC(=O)[C@H](Cc1c[nH]cn1)NC(=O)[C@H](CCCNC(=N)N)NC(=O)[C@H](CCCCN)NC(=O)[C@H](CCC(=O)O)NC(=O)[C@H](Cc1c[nH]cn1)NC(=O)[C@H](COP(=O)(O)O)NC(=O)[C@@H](N)CC(=O)O)C(=O)N[C@@H](CCCNC(=N)N)C(=O)N[C@@H](CCCCN)C(=O)N[C@@H](Cc1ccccc1)C(=O)O gave a binding response of 37% (TMEM97 (Homo sapiens, UniProt Q5BJF2); SPR; concentration not given, 25 °C; reference: Rmax).
CN(Cc1ccc(/C=C/C(=O)NO)cc1)CC12CC3CC(CC(C3)C1)C2 gave an inhibition of 5% (human NOP receptor; agonist radioligand binding; 0.05 µM).
Under “time to first increase”, CC(C)(O)c1ccn2c(-c3ccc(F)c(-c4ccc(F)cc4C#N)c3)cnc2c1F is recorded as ≤ 6 h (GABRA1 (Homo sapiens, UniProt P14867, D219N); total protein level, Western blot; HEK-293T stably expressing GABAA receptors; 5 µM, single dose, with: hispidulin 10 µM).
Cc1ccc(S(=O)(=O)NC(CC(=O)O)c2ccccc2)cc1 (stereo not drawn) — result for IC50: “inactive” (Rhomboid protease AarA; enzyme activity, inhibitor, fluorogenic peptide substrate).
The basal binding of CCCCCCOc1ccc(C(=O)OCCN2CC=CCC2)cc1 is reported as 1.28 ± 0.06 fold (CHRM4 (Homo sapiens, UniProt P08173); membranes; 1 µM, 15 h, no carbachol; reference: control).
For N#Cc1ccc(-c2cnc(C(=O)CCCCCCc3ccccc3)o2)nc1, the potency increase was > 10 fold (Faah (Mus musculus, UniProt O08914); competitive ABPP; mouse brain membrane proteome; reference: 6 h over 20 min preincubation).
COc1ccc(Cl)cc1NC(=O)C(F)(F)F: IC50 “inactive” (Rhomboid protease AarA; enzyme activity, inhibitor, fluorogenic peptide substrate).
For C#CCCCCNC(=O)c1ccc(N(C(=O)C=C)c2ccc(Br)cc2)cc1, the reactivity ratio was 1.77 (HM13 (Homo sapiens, UniProt Q8TCT9); mass spectrometry profiling; H460 cell lysate; 100 µM over 10 µM, UniProt Q8TCT9; reference: high over low concentration).
CCCCCC=CC=C1C(=O)C=CC1CC=CCCCC(=O)O (stereo not drawn) — result for “isoTOP-ABPP competition ratio”: 2.5 (AP-3 complex subunit sigma-2 (AP3S2, Homo sapiens, UniProt P59780); competitive isoTOP-ABPP, refers to: AP3S2 cysteine peptide; proteome, soluble, MDA-MB-231; 100 µM, with: iodoacetamide probe; reference: DMSO over compound-treated, higher = stronger cysteine blockade).
For Cc1cccc(C(=O)NC(NC(=S)Nc2cccc(C(=O)O)c2)C(Cl)(Cl)Cl)c1 (stereo not drawn), the koff was 0.023 ± 0.0159 s⁻¹ (Heat shock protein HSP 90-alpha, N-terminal domain (HSP90AA1, Homo sapiens, UniProt P07900); SPR, two-state model; N-terminal domain).
The activation of COc1ncc2nc(C)n(Cc3ncc(S(N)(=O)=O)cc3F)c2c1-c1ccccc1 is reported as 0.45% (Neuronal acetylcholine receptor; alpha4/beta2 (Homo sapiens, UniProt P17787+P43681); agonist, cell-based; 10 µM).

A few entries again:
Under “time to first increase”, CC(C)(O)c1ccn2c(-c3ccc(F)c(-c4ccc(F)cc4C#N)c3)cnc2c1F is recorded as ≤ 6 h (GABRA1 (Homo sapiens, UniProt P14867, D219N); total protein level, Western blot; HEK-293T stably expressing GABAA receptors; 5 µM, single dose, with: hispidulin 10 µM).
CCCCCC=CC=C1C(=O)C=CC1CC=CCCCC(=O)O (stereo not drawn) — result for “isoTOP-ABPP competition ratio”: 2.5 (AP-3 complex subunit sigma-2 (AP3S2, Homo sapiens, UniProt P59780); competitive isoTOP-ABPP, refers to: AP3S2 cysteine peptide; proteome, soluble, MDA-MB-231; 100 µM, with: iodoacetamide probe; reference: DMSO over compound-treated, higher = stronger cysteine blockade).
